Assay results gathered from unrelated publications.
Lines come from different studies, so protocols differ. Numbers after ± are the reported error.

SMILES | cell line | assay | setting | IC50
CCCCN1C[C@H](O)[C@@H](O)[C@@H](O)[C@H]1CO | sample BA patient fibroblasts | Gb3 level lowering, LC-MS/MS, refers to: Gb3 d18:1/16:0 | 216 h | 14900 nM
CC(C)(C)Cn1c(N)nc2ccc(-c3[nH]c(C(C)(C)C)nc3-c3ccc(F)cc3)nc21 | NCI-H1975 (EGFR L858R/T790M) | cell growth | – | 16700 nM
CCNCCCn1c2c(c3cc(OC)c(OC)cc3c1=O)C(=O)c1cc3c(nc1-2)OCO3 | CHLA-32 Ewing sarcoma cells | cytotoxicity, MTS | 72 h | 33 nM
CNC(=O)c1cc(Oc2ccc(NC(=O)Nc3ccc(Cl)c(C(F)(F)F)c3)cc2)ccn1 | primary AML mononuclear cells, FLT3-ITD positive | cell viability, MTS | ex vivo | 2010 nM
Cc1cn(C2CCN(Cc3cncc(Oc4cccc(Cl)c4)c3)CC2)c(=O)[nH]c1=O | MRC-5 cells | cytotoxicity | 3 days | 39900 nM
Cc1c(C(=O)O)ccc2c3n(nc12)[C@@H]1[C@H](C3)N(CC2CC2)[C@@]2(C(=O)Nc3cc(Cl)ccc32)[C@H]1c1cccc(Cl)c1F | NUGC-4 | cell proliferation, alamarBlue | – | 0.52 nM
Nc1ccn([C@@H]2O[C@H](CO)[C@@H](O)C2(F)F)c(=O)n1 | MP38 uveal melanoma BAP1-mutant | cell viability, CellTiter-Glo | 72 h | 1230 nM
Nc1cccc2c1C(=O)N(C1CCC(=O)NC1=O)C2=O (stereo not shown) | MM1.S, compound-resistant | cell viability, XTT | – | ~1600 nM
COc1cccc2c1C(=O)c1c(O)c3c(c(O)c1C2=O)C[C@@](O)(C(=O)CO)C[C@@H]3O[C@H]1C[C@H](N)[C@H](O)[C@H](C)O1 | K562 (compound-resistant) | cell growth, inhibitor, CellTiter-Glo | 96 h | 466 nM
C[C@H](Nc1ccc2c(c1)OCCn1cc(N3C(=O)OC[C@H]3C(F)F)nc1-2)C(N)=O | TCC-SUP | cell growth, CellTiter-Glo | 120 h | 172 nM
COc1cc([C@@H]2c3cc4c(cc3[C@H](O)[C@H]3COC(=O)[C@H]23)OCO4)cc(OC)c1OC | MP38 uveal melanoma BAP1-mutant | cell viability, CellTiter-Glo | 72 h | 15 nM
CS(=O)(=O)CCNCc1ccc(-c2ccc3ncnc(Nc4ccc(OCc5cccc(F)c5)c(Cl)c4)c3c2)o1 | Ba/F3 expressing HER2 V659E | cell growth, inhibitor, CellTiter-Glo | – | 118 nM
CNC(=S)N/N=C/c1cccc2cc3ccccc3nc12 | PATU | cell proliferation, MTT | 48 h | 15700 ± 2400 nM
COc1cc2c3c(n(CCCn4ccnc4)c(=O)c2cc1OC)-c1nc2c(cc1C3=O)OCO2 | CHLA-32 Ewing sarcoma cells | cytotoxicity, MTS | 72 h | 280 nM
CC[C@H](C)[C@@H]1NC(=O)[C@H](Cc2ccc(-c3ccccc3)cc2)NC(=O)[C@H](CC(C)C)NC(=O)[C@@H]2[C@@H](c3ccccc3)CCN2C(=O)[C@H](NC(=O)[C@H](CCCNC(=N)N)NC(=O)[C@H](CCCNC(=N)N)NC(C)=O)CSCSC[C@@H](C(=O)N[C@@H](CCCNC(=N)N)C(=O)N[C@@H](CCCNC(=N)N)C(N)=O)NC(=O)[C@H](C(C)C)NC(=O)[C@@H]2CCCN2C(=O)[C@H](CC(=O)O)NC(=O)[C@H](Cc2ccc(O)cc2)NC(=O)[C@H](CO)NC1=O | A-375 (BRAF V600E) | AlphaScreen, refers to: pERK | 18 h | > 50000 nM
CCCCCCCCC1=CC2C=CC=CC1C2C1CCCCC1=O (stereo not shown) | normal fibroblasts | cytotoxicity | – | 673 ± 59 nM
CC[C@H](C)[C@@H]1NC(=O)[C@H](Cc2ccc(-c3ccccc3)cc2)NC(=O)[C@H](CC(C)C)NC(=O)[C@@H]2[C@@H](c3ccccc3)CCN2C(=O)[C@H](NC(=O)[C@@H](CCCNC(=N)N)NC(=O)[C@@H](CCCNC(=N)N)NC(C)=O)CSCSC[C@@H](C(=O)N[C@H](CCCNC(=N)N)C(=O)N[C@H](CCCNC(=N)N)C(N)=O)NC(=O)[C@H](C(C)C)NC(=O)[C@@H]2CCCN2C(=O)[C@H](CC(=O)O)NC(=O)[C@H](Cc2ccc(O)cc2)NC(=O)[C@](C)(CO)NC1=O | A-375 (BRAF V600E) | AlphaScreen, refers to: pERK | 18 h | > 50000 nM

SMILES | cell line | assay | setting | IC50
CC(C)(C)SCCCC1=CC2C=CC=CC1C2C1CCCCC1=O (stereo not shown) | normal fibroblasts | cytotoxicity | – | 311 ± 28 nM
OCCCN1CC[C@@H]2C[C@H]1c1cc(-c3ccc(C(F)(F)F)cc3)ccc12 | mouse DRG neurons | p-eIF2α level | 16 h | 30 nM
O=C1CCCCC1C1C2C=CC=CC1/C(=C/c1ccccc1)C2 (stereo not shown) | normal fibroblasts | cytotoxicity | – | 412 ± 38 nM
COc1c(Cl)cccc1Nc1c(-c2ccncc2OC[C@@H]2COCCO2)[nH]c2c1C(=O)NCC2 | Ba/F3 expressing HER2 V659E | cell growth, inhibitor, CellTiter-Glo | – | 13.4 nM
CC[C@H](C)[C@@H]1NC(=O)[C@H](Cc2ccc(-c3ccccc3)cc2)NC(=O)[C@H](CC(C)C)NC(=O)[C@@H]2[C@@H](c3ccccc3)CCN2C(=O)[C@H](NC(=O)[C@H](CCCNC(=N)N)NC(=O)[C@H](CCCNC(=N)N)NC(=O)[C@H](CCCCN=[N+]=[N-])NC(C)=O)CSCSC[C@@H](C(=O)N[C@@H](CCCNC(=N)N)C(=O)N[C@@H](CCCNC(=N)N)C(N)=O)NC(=O)[C@H](C(C)C)NC(=O)[C@@H]2CCCN2C(=O)[C@H](CC(=O)O)NC(=O)[C@H](Cc2ccc(O)cc2)NC(=O)[C@H](CO)NC1=O | A-375 (BRAF V600E) | AlphaScreen, refers to: pERK | 18 h | > 50000 nM
O=[N+]([O-])c1ccc(NC(=S)N/N=C/c2cccc3cc4ccccc4nc23)cc1 | PATU | cell proliferation, MTT | 48 h | > 50000 nM
C=CC(=O)Nc1cc(Nc2nccc(-c3cn(C)c4ccccc34)n2)c(OC)cc1N(C)CCN(C)C | Ba/F3 EGFR G719S | cell proliferation, CellTiter-Glo | 72 h | 34.92 ± 0.01 nM
N#CCCC1=CC2C=CC=CC1C2C1CCCCC1=O (stereo not shown) | normal fibroblasts | cytotoxicity | – | 629 ± 54 nM
CCCNC(=S)N/N=C/c1cccc2cc3ccccc3nc12 | PATU | cell proliferation, MTT | 48 h | > 50000 nM
CCOc1cc2ncc(C#N)c(Nc3ccc(OCc4ccccn4)c(Cl)c3)c2cc1NC(=O)/C=C/CN(C)C | Ba/F3 expressing HER2 V659E | cell growth, inhibitor, CellTiter-Glo | – | 5.4 nM
CC1(COc2ccc3c(c2)ncn3-c2ccc3cccc(N4CCC(N)CC4)c3n2)COC1 | primary AML mononuclear cells, FLT3-ITD positive | cell viability, MTS | ex vivo | 5280 nM
COc1ccc(-c2nc(N3CCOCC3)c3sc(CN(C)c4ncc(C(=O)NO)cn4)cc3n2)cn1 | MP38 uveal melanoma BAP1-mutant | cell viability, CellTiter-Glo | 72 h | 17.6 nM
O=C1CCCCC1C1C2C=CC=CC1C(C1CC1)=C2 (stereo not shown) | normal fibroblasts | cytotoxicity | – | 241 ± 22 nM
CC(C)C[C@H](NC(=O)[C@H](Cc1ccccc1)NC(=O)c1cnccn1)B(O)O | MP38 uveal melanoma BAP1-mutant | cell viability, CellTiter-Glo | 72 h | 14.9 nM
O=C(CCCCCONC(=O)c1nc(-c2cccnc2)cs1)NO | neonatal foreskin fibroblasts | cytotoxicity, sulforhodamine B | 72 h | 40100 nM
Cc1noc(C)c1-c1cc(C(O)(c2ccccn2)c2ccccn2)c2nc(C3CC3)[nH]c2c1 | MP38 uveal melanoma BAP1-mutant | cell viability, CellTiter-Glo | 72 h | 140 nM
Cc1c(C)c2c(c(C)c1O)CCC(C)(COc1ccc(CC3SC(=O)NC3=O)cc1)O2 (stereo not shown) | THLE-2, 3D culture | MTT | 96 h | 79790 ± 254 nM
